Measurements of several laboratories.
Each numbered part is a random draw from the data of one study; scales do not carry over between parts. Several values in a cell are separate wells, animals, samples, runs or records.
UniProt P16591, sequence (whole entry, looked up): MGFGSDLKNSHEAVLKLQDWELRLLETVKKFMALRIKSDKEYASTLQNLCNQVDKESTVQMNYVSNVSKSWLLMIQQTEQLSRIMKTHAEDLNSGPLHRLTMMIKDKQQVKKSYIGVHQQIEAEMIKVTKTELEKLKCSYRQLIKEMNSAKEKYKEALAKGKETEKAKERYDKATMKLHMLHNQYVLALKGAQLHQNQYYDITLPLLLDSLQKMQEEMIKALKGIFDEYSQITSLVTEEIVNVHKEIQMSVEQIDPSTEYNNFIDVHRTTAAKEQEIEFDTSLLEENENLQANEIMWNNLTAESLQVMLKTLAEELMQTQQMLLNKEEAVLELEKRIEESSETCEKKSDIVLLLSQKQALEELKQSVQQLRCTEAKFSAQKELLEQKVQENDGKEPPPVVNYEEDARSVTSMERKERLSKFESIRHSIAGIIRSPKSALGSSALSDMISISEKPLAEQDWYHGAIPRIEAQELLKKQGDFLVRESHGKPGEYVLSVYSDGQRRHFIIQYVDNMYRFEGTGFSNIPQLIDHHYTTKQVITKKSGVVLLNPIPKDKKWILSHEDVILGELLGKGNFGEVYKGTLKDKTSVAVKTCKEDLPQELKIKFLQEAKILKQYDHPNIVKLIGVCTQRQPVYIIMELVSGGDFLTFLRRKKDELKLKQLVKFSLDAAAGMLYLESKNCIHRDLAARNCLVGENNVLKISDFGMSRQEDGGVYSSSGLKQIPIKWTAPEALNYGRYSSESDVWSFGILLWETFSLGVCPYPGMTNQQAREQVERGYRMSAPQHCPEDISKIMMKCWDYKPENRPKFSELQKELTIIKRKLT
UniProt P57059, sequence (whole entry, looked up): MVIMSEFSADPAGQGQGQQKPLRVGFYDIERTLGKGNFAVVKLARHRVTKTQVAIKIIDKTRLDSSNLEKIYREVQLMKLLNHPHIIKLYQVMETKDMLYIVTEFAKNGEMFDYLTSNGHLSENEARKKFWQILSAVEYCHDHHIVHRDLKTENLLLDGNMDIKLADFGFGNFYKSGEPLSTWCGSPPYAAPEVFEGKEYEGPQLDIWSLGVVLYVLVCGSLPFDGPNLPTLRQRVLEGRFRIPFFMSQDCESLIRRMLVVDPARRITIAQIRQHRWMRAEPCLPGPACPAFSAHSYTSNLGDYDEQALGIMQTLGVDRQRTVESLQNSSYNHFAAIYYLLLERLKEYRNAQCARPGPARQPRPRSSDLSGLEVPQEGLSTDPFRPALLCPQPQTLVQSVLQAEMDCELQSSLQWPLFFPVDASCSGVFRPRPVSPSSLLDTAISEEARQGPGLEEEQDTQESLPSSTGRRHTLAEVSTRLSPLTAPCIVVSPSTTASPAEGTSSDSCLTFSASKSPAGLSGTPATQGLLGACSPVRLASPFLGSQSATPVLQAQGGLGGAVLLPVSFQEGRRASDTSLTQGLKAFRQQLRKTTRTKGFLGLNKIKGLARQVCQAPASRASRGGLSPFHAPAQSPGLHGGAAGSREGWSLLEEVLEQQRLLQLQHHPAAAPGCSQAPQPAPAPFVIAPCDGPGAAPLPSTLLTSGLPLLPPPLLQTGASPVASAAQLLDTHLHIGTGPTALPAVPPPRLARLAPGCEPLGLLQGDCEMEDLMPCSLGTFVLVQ
UniProt Q00526, sequence (whole entry, looked up): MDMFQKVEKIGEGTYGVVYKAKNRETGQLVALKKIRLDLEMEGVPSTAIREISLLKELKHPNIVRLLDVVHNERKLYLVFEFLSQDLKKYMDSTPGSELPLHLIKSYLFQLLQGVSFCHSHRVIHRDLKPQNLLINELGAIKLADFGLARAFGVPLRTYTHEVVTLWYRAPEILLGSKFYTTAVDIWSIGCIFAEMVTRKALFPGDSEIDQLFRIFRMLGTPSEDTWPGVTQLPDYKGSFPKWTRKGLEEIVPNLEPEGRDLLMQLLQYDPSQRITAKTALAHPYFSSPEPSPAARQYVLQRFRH

Series 1
Target: DNA polymerase theta, ATPase domain (POLQ, Homo sapiens, UniProt O75417)
UniProt O75417, sequence (whole entry, unmodified, looked up): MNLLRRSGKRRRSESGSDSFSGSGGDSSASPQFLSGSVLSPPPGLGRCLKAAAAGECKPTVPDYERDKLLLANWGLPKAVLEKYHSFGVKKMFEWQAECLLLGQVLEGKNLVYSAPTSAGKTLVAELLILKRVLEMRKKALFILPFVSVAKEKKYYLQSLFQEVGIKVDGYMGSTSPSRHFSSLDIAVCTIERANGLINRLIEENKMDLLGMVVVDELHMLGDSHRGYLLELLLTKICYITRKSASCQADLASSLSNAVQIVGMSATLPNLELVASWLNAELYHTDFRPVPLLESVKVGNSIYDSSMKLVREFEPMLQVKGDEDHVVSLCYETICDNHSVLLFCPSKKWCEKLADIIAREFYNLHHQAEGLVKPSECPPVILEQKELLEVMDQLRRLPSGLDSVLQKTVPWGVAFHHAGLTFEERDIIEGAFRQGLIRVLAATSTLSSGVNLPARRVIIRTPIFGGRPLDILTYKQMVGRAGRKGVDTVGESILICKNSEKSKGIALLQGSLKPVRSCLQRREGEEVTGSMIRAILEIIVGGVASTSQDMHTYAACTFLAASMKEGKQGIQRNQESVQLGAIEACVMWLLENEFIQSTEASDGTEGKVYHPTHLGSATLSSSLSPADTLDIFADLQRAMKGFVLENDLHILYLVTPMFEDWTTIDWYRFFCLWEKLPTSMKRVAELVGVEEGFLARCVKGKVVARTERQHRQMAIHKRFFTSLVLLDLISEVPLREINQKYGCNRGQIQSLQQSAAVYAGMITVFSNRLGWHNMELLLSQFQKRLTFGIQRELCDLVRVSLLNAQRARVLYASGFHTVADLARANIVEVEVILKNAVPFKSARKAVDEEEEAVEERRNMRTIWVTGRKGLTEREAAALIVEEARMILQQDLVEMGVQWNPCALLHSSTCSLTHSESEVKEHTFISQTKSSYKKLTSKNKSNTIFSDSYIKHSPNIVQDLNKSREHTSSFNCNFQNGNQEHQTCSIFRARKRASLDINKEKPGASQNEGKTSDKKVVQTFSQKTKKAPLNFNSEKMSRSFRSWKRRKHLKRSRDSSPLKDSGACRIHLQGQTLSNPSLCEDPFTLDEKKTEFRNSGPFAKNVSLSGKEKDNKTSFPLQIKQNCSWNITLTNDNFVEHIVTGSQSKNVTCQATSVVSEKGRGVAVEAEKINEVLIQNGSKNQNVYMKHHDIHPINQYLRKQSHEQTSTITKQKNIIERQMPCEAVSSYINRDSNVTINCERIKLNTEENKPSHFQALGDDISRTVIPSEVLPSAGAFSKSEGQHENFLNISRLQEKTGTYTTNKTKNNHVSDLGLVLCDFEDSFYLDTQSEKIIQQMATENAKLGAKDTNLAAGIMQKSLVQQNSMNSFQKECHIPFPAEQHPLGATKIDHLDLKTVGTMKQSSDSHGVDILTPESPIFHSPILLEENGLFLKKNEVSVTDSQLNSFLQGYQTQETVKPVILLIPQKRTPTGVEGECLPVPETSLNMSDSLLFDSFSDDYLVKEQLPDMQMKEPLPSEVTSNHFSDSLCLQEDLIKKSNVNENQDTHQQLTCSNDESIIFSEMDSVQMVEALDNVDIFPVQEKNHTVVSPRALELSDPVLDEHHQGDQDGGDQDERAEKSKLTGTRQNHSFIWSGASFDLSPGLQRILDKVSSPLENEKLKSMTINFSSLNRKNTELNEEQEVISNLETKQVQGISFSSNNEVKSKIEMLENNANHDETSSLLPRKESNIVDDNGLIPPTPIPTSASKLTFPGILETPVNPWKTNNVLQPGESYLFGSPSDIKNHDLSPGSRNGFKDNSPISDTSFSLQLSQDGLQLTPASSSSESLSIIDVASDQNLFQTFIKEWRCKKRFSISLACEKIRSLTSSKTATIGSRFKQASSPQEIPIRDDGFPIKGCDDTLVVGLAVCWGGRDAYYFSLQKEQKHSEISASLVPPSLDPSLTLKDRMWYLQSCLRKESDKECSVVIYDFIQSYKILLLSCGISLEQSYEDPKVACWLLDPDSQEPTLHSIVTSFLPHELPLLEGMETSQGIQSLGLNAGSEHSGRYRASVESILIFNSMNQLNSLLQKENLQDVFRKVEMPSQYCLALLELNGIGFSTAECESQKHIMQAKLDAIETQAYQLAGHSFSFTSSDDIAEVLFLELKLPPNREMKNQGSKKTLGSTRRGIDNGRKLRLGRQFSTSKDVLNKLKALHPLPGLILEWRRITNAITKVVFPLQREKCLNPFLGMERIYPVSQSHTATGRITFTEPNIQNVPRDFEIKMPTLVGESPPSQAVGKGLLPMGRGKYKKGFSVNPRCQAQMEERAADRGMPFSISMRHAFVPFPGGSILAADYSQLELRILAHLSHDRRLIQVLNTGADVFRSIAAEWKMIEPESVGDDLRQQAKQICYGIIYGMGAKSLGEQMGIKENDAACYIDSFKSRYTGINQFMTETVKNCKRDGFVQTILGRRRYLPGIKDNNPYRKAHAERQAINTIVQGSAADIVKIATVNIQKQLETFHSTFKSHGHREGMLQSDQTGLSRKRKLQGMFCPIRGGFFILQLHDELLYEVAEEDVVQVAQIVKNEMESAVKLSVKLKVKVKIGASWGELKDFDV
Effect on: enzyme activity
Mode: inhibitor
Concentration: 77 µM
Relative to: untreated
Structure (SMILES) | remaining activity
COc1ccc(C2=N[C@H](c3ccc(Cl)cc3)[C@H](c3ccc(Cl)cc3)N2C(=O)N2CCNC(=O)C2)c(OC(C)C)c1 | 99.7%
OC[C@@H](O)[C@@H](O)[C@@H](O)CO | 94.5%
O=C1c2ccccc2C(=O)c2c(NCCc3ccc(O)cc3)ccc(NCCc3ccc(O)cc3)c21 | 99.8%
COc1cc2c(cc1OC)CN(CCc1ccc(NC(=O)c3cc(OC)c(OC)cc3NC(=O)c3cnc4ccccc4c3)cc1)CC2 | 97.3%
Cc1ccc(Cl)cc1N(CC(=O)Nc1c(F)cccc1F)S(C)(=O)=O | 99.9%
COc1cc(-c2cc(-c3cccc(O)c3)cnc2N)cc(OC)c1OC | 97%
O=C(N[C@@H](Cc1ccccc1)C(=O)CCl)OCc1ccccc1 | 101%
CC[C@H](NC(=O)c1c(C)c(-c2ccccc2)nc2ccccc12)c1ccccc1 | 111%
Cn1c(O)c(-c2[nH]c3ccccc3c2N=O)c2ccc(Br)cc21 | 111%
Nc1ccc(C(=O)NCC(=O)O)cc1 | 96.3% and 110%
c1cnc2c(c1)ccc1cccnc12 | 104%

Series 2
SMILES: CN([C@@H]1CCc2c(CC(=O)O)c3cc(S(C)(=O)=O)ccc3n2C1)S(=O)(=O)c1ccc(F)cc1
Concentration: 1 µM
target | effect on | mode | technique | relative to | remaining binding [%]
WEE2 (Homo sapiens, UniProt P0C1S8) | cell-free assay |  | competition with immobilised ligand |  | 95
PIP4K2B (Homo sapiens, UniProt P78356) | cell-free assay |  | competition with immobilised ligand |  | 59
SIK1 (Homo sapiens, UniProt P57059) |  | binder | KINOMEscan competition binding | DMSO | 87
NEK4 (Homo sapiens, UniProt P51957) | cell-free assay |  | competition with immobilised ligand |  | 91
Cyclin-dependent kinase 4, with cyclin D3 (CDK4, Homo sapiens, UniProt P11802) | cell-free assay |  | competition with immobilised ligand |  | 93
CDK14 (Homo sapiens, UniProt O94921) | cell-free assay |  | competition with immobilised ligand |  | 100
CAMK1 (Homo sapiens, UniProt Q14012) | cell-free assay |  | competition with immobilised ligand |  | 80
FER (Homo sapiens, UniProt P16591) | cell-free assay |  | competition with immobilised ligand |  | 100
LYN (Homo sapiens, UniProt P07948) | cell-free assay |  | competition with immobilised ligand |  | 100
EPHB2 (Homo sapiens, UniProt P29323) | cell-free assay |  | competition with immobilised ligand |  | 87
KDR (Homo sapiens, UniProt P35968) | cell-free assay |  | competition with immobilised ligand |  | 85
DCLK2 (Homo sapiens, UniProt Q8N568) | cell-free assay |  | competition with immobilised ligand |  | 100
RIOK3 (Homo sapiens, UniProt O14730) | cell-free assay |  | competition with immobilised ligand |  | 94
MKNK1 (Homo sapiens, UniProt Q9BUB5) | cell-free assay |  | competition with immobilised ligand |  | 86
STK38L (Homo sapiens, UniProt Q9Y2H1) | cell-free assay |  | competition with immobilised ligand |  | 88
CSNK1E (Homo sapiens, UniProt P49674) | cell-free assay |  | competition with immobilised ligand |  | 96
Tyrosine-protein kinase JAK3, JH1 (JAK3, Homo sapiens, UniProt P52333) | cell-free assay |  | competition with immobilised ligand |  | 100
CDK15 (Homo sapiens, UniProt Q96Q40) | cell-free assay |  | competition with immobilised ligand |  | 84
PIK3C3 (Homo sapiens, UniProt Q8NEB9) | cell-free assay |  | competition with immobilised ligand |  | 100
KIT (Homo sapiens, UniProt P10721, D816H) | cell-free assay |  | competition with immobilised ligand |  | 97
CDK2 (Homo sapiens, UniProt P24941) | cell-free assay |  | competition with immobilised ligand |  | 100
DAPK3 (Homo sapiens, UniProt O43293) | cell-free assay |  | competition with immobilised ligand |  | 97
IRAK3 (Homo sapiens, UniProt Q9Y616) | cell-free assay |  | competition with immobilised ligand |  | 100
HIPK3 (Homo sapiens, UniProt Q9H422) | cell-free assay |  | competition with immobilised ligand |  | 68
EIF2AK2 (Homo sapiens, UniProt P19525) | cell-free assay |  | competition with immobilised ligand |  | 100

Series 3
Target: Calcium/calmodulin-dependent protein kinase type II subunit alpha (CAMK2A, Homo sapiens, UniProt Q9UQM7)
UniProt Q9UQM7, sequence (whole entry, looked up): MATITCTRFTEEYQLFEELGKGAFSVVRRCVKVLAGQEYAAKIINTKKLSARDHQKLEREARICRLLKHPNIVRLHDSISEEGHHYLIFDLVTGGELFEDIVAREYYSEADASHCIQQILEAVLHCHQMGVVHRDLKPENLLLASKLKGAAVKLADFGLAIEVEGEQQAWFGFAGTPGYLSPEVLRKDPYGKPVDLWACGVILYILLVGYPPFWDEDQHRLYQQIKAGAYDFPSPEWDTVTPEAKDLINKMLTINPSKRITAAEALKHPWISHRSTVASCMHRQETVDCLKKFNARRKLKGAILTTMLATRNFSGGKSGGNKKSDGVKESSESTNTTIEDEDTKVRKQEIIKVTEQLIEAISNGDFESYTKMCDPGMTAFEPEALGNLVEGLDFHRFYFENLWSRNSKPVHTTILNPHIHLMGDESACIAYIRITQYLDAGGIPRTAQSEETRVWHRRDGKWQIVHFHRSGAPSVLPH
Effect on: enzyme activity
Mode: inhibitor
Concentration: 10 µM
Structure (SMILES) | inhibition
CC(C)OC(=O)CCC/C=C\C[C@@H]1[C@@H](/C=C/C(F)(F)COc2ccccc2)[C@H](O)C[C@@H]1O | -4%
CC(=O)N[C@@H](CC(N)=O)C(=O)O | -12%
C[C@H]1CC[C@@H]2[C@@H](C)[C@H]3[C@H](C[C@H]4[C@@H]5CC=C6C[C@@H](O)CC[C@]6(C)[C@H]5CC[C@]34C)N2C1 | 24%
C#C[C@]1(O)CC[C@H]2[C@@H]3CCc4cc(O)ccc4[C@H]3CC[C@@]21C | 11%
O=C(O)CCc1nc(-c2ccccc2)c(-c2ccccc2)o1 | 6%
C[C@]12CCC(=O)C=C1CC[C@@H]1[C@@H]2[C@@H](O)C[C@@]2(C)[C@H]1CC[C@]2(O)C(=O)CO | 38%
O=c1c2cc(O)c(O)cc2oc2c([C@@H]3O[C@H](CO)[C@@H](O)[C@H](O)[C@H]3O)c(O)cc(O)c12 | 22%
NC1CCCNC1=O (stereo not drawn) | 25%
CCC[C@@H]1C[C@@H](C(=O)N[C@@H]([C@H]2O[C@H](SC)[C@H](O)[C@@H](O)[C@H]2O)[C@H](C)Cl)N(C)C1 | 3%
COC(=O)C=Cc1ccc(O)cc1 | -19%
O=C(O)/C=C/C=C/C(=O)O | -7%
C[C@@H]1O[C@@H](O[C@@H]2C(=O)c3c(O)cc(O)cc3O[C@@H]2c2ccc(O)c(O)c2)[C@H](O)[C@H](O)[C@H]1O | -22%

Series 4
SMILES: Cc1ccc(S(=O)(=O)/C=C/C#N)cc1
Effect on: enzyme activity
Mode: inhibitor
Concentration: 0.5 µM
Relative to: control
target | remaining activity
FYN (Homo sapiens, UniProt P06241) | 95.4%
HIPK1 (Homo sapiens, UniProt Q86Z02) | 105%
STK25 (Homo sapiens, UniProt O00506) | 89.6%
Cyclin-dependent kinase 3, with cyclin E (CDK3, Homo sapiens, UniProt Q00526) | 99.7%
CDC42BPA (Homo sapiens, UniProt Q5VT25) | 96.4%
PASK (Homo sapiens, UniProt Q96RG2) | 99.3%
TAOK3 (Homo sapiens, UniProt Q9H2K8) | 101%
FLT4 (Homo sapiens, UniProt P35916) | 96.5%
ALK (Homo sapiens, UniProt Q9UM73) | 103%
MARK3 (Homo sapiens, UniProt P27448) | 100%
LIM domain kinase 1 (LIMK1, Homo sapiens, UniProt P53667) | 97.1%
NLK (Homo sapiens, UniProt Q9UBE8) | 99.2%
FER (Homo sapiens, UniProt P16591) | 104%
PKN1 (Homo sapiens, UniProt Q16512) | 92.1%
FGR (Homo sapiens, UniProt P09769) | 100%
PRKX (Homo sapiens, UniProt P51817) | 102%
MATK (Homo sapiens, UniProt P42679) | 101%
NEK11 (Homo sapiens, UniProt Q8NG66) | 95.8%
Insulin receptor (INSR, Homo sapiens, UniProt P06213) | 108%
SRC (Homo sapiens, UniProt P12931) | 102%
AKT1 (Homo sapiens, UniProt P31749) | 112%

Excerpt of the above (series 4):
target | remaining activity
CDC42BPA (Homo sapiens, UniProt Q5VT25) | 96.4%
PASK (Homo sapiens, UniProt Q96RG2) | 99.3%
TAOK3 (Homo sapiens, UniProt Q9H2K8) | 101%
FLT4 (Homo sapiens, UniProt P35916) | 96.5%
ALK (Homo sapiens, UniProt Q9UM73) | 103%
MARK3 (Homo sapiens, UniProt P27448) | 100%
LIM domain kinase 1 (LIMK1, Homo sapiens, UniProt P53667) | 97.1%
NLK (Homo sapiens, UniProt Q9UBE8) | 99.2%
FER (Homo sapiens, UniProt P16591) | 104%
PKN1 (Homo sapiens, UniProt Q16512) | 92.1%
FGR (Homo sapiens, UniProt P09769) | 100%
